Measured values collected from several papers.
Numbered parts are unrelated; each lists some results of a single study.

Block 1
Target: RNA binding protein fox-1 homolog 2, RRM domain, GST-SBP tag (RBFOX2, Homo sapiens, UniProt O43251-10, residues 100-194)
Technique: RNA Bind-n-Seq
Molecule type: RNA
Medium: in vitro
Tested at: 365 nM
Notes: natural RNA segment, single round, ends assumed
Baseline: no-protein control
Reading: higher = stronger binding
All sequences stand within: GGGAGUUCUACAGUCCGACGAUC … UGGAAUUCUCGGGUGCCAA
Construct (chain): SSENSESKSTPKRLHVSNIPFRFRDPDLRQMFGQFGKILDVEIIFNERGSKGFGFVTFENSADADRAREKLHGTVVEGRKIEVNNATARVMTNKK
Strand	RBNS enrichment (R)
GUUACAGAUCCAAAGACAUAGAGUGAUGUGGGUGUCAGGAGACUGAAGAGAGGUGAAAGGCACACUUUCAACCUGUCAUUCAGCGUUUCUUUUGAGCUUAGUCAGCUGUA	0.275
AUGUAUUUUUUCAUUCUAUAAGUUCUGUUCUAGAGAAUCCCAAGUAAUACAGAUUUUCAUAUCAGAGGUGGUUCUAGAGCAAUAGAAGUAUUAAGGUGAAUUUUUUUUAA	0.98
AGAGCAGUGGGGGCUGCCCUCUGUAGAGCUGUGAGGGAGAGGCUUUCUGAUCAGAUGAACAUCUGUCCAAGCCAAAAUUCUGCAGAGGGCAGGUGAGCUUUGCUUAUGUA	0.961
GCCCUGUUCCCCACUCCCUCCACUGGCCUCUGCUGUUCCUGUCUUUGCUCACACCCUCACAGCUGCUCUCUGGCAGAGGUUGGCAUAGCCUAGGAGCAGCUGCAAUUGCA	2.95
CAUCUCUCGCUUGCUUAAAGUCUUGAGGAAAAUGUUCCUGUUUGCUGCGUGGGCCUGGGUGGGAUGUCUGUUGGCUCUGUUGUGUUUACUCACCGGUUUGUACAUUAUCU	1.6
CCACACUGGACUAGUCUAUGCCUCAUGUGUCCAGCUUCCAUGUUGGACUUCGACCAGCAUCUGAAGGGAACCAGGUUGUGUGUGCUUGCAGUUUGCUCCCUGUUGACAUA	1.1
UAGACCGGAGCGCAUGCUGGCUAUUACUGAACACGGCCAUACUUGAGAAACAAAGUCUACUGUGUAUUUGACAGCUAUUUAUCACCAAGACAACUGUAAAGAAAUCAAGC	8.31
GACAAGCAGCAUCUGUCCCCCCCAGAGCCAUCUAGCUACUGACACUGCCCCCAGCUUUGCUUCUCACCAGCUCAUUAGGGCUCCCAGGUUAAAGUCCUUCAGUAUUUAUG	0.873
CUGGUUCAUUUAGCUGUUUGGCAGAAUUCUUACACUAUCCUCAGCCUCAGUUAUGAAAUGACCAAGAAAAGUAUCUCAUAAAUAUUGUAUAUUACGUGAAAUGUGAAGUU	0.352
AAAAAAAAAAUGCUUUCCUGCCGGGGGGCAGGGGAGACGGAGAAACCCAUGUGCGUUUCCCAUGUGACCCCCUCCUCCCUGUGGGUCUGAGCCCCGGCCCCCCCCACCUC	0.395
GUCAGUGGAGGGAAGCAGAGCUUUGAGUGACACACGAGUGUUGGGGUUUCCUGCUGCCUGCCCUGGCCCGUGAGAGACGCACGCAACAAACGGAAGAAUUAGAGACGUCC	2.65
CCUCCCUGUUGGGAGCAAUCUGUACGUCUGUUUUGUCAGCUUCAGGUUCUGGUACUUUGAAGUCAAUGCUGUCAGGCCAGGGAAAUAAAAUAAUUGCUUACCUUAAAAGU	0.298

Block 2
Target: RING finger protein unkempt homolog, zinc fingers 1-6, GST-SBP tag (UNK, Homo sapiens, UniProt Q9C0B0, residues 30-357)
Technique: RNA Bind-n-Seq
Molecule type: RNA
Medium: in vitro
Tested at: not given
Notes: RNA with constant flanks, human and mouse sites, ends assumed
Baseline: input RNA pool
Reading: higher = stronger binding
All sequences stand within: GGGAGUUCUACAGUCCGACGAUC … CAACAGAGGAUUGAGCAUCA
Residues (chain): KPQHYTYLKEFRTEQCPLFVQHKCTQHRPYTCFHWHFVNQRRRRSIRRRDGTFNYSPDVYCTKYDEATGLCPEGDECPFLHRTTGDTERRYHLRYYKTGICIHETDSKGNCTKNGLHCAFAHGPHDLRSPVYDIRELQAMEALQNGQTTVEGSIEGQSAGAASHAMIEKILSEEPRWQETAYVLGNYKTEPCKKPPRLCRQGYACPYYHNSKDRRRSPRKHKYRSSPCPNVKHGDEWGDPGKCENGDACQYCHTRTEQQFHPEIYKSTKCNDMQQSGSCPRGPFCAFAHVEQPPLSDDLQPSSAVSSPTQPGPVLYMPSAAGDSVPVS
Strand	bound/input enrichment
CCUCAGAUGGUGUCUGCUAUUGUACGUACCAUGCAGAAUACAAAUGAUGUAGAAACAGCUCGUUGUACCGCUGGGACCUUGCAUAACCUUUCCCAUCAUCGUGAGGGCUUACUGGCCAUC	0.153 ratio
AGAGCAUCUCUCACAUAUUAAAGAAAGUGUUGAAGAUAAGCUGGAAUUGAGACGGAAACAAUUUCACGUUCUUCUUAGUACCAUCCAUGAACUUCAACAGACAUUGGAGAGUAAGUGAAA	0.174 ratio
AGUAAAUCUGCAGAGGAGCCACAGGAAAAAGUUGACUUGACUCUAGAUUGGUUAACUGAAACCUCUGAAGAGGCAAAAGGAGGAGCAGCACCAGAAGGACCGAAUGAAGCUGAGGUCACU	0.145 ratio
CGUAUUCCGAGCUCUCUGGAAAGAGAGGAAACUCCAGGGAAGAUGUGGCUGAAGCUUUUUUUCUUGCUCCUCUAUUUCCUGGUCCUGUUCGUCCUGGCCAGGUUUUUUGAGGCCAUUGUG	0.125 ratio
UCAGUGGGAAGCAAUGGGCUUCUGGACUUUGAUUCAGAAUAUCAGGAGCUCUGGGAUUGGCUGAUUGACAUGGAGUCCCUUGUGAUGGACAGCCACGACCUGAUGAUGUCAGAGGAGCAG	0.17 ratio
CUCACUGUUCAUUACAAAAGCGUACACCUUGGAGAGAAAGUGUGGCAAAAAUAUAAAGCAACAUUUCAUCAAUGUGAUGUUUGUAAGAAAAUUUUUAAAGGCAAAUCAAGUCUGGAAAUG	0.161 ratio
GGAUCCUUCACAGUGAGGACUGACACAGGUGAACCAAUGGGUCGUGGAACAAAGGUUAUCUUGCAUCUGAAAGAAGACCAAACAGAGUAUUUGGAGGAAAGGAGAAUAAAGGAGAUCGUG	0.382 ratio
CAUACUGUUUCCAGCUGUUGGUUCUGGAUAACUCUCGAGUGCGUCUCAAACCCAAAGCCAGGUUGACACCCAAAAUACAGAAACUUCUUAAUCGAGAAGCGAGAAACUAUACACUCAGUU	0.0939 ratio
CGCGCAGGGAUGGAGGCCUGUCUUGUUCCCGCCAAUUCUCGUGUCAGUCCUGUCCGGGUCUAGUUCUUUACUUCAUGGAGCCAUUUGAUCCUGCGGAGCUGCCGGAGCUACUCAAGCUUU	0.0326 ratio
UUUCCAAAGCAGCCAGGGACAUCAGGCGCUUACCCUCUUACUUCACCCCCUACAUCCUAUCACAGCACAGUUAAUCAGUCCCCCUCUAUGAUGCACACACAGUCUCCAGGAAAUCUGCAU	0.537 ratio
AUUUUCCUGUGCUCAAUGUGUAAAUUGUAUCAUAACUCAUUGUGGUUGAUUUCACUUUGAUUUAGUGGCAUCUUAAUAAAUGGGGGUGUUACUGAAUCACUCUUCCCACUUCCAUUUCUU	0.203 ratio

Block 3
Target: Histone acetyltransferase KAT6A, winged helix 2, GST fusion (KAT6A, Homo sapiens, UniProt Q92794, residues 85-181)
Technique: protein binding microarray
Molecule type: double-stranded DNA, one strand shown
Medium: in vitro
Tested at: not given
Notes: 8-mer, flanks averaged, mean of 2 arrays, mostly near background
Baseline: not given
Reading: higher = stronger binding
Construct (chain): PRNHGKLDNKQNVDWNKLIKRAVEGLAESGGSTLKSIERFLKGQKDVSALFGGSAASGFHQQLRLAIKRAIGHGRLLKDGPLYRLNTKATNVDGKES
Strand	E-score
CCAAGTGC	0.0486
AAAATTAC	-0.0109
GCACCCCC	-0.0182
ATGCCGAC	0.0465
CATAGCAG	0.0217
AAAAGTAA	0.0191
AGACCCCC	-0.131
AACTGCCG	0.221
CATTGTCA	-0.00581
TAAAGTTA	0.167
AACTTCGT	0.0947
ACCGCGGG	0.206
ACACTGAC	-0.0501
CGCTGCGA	0.136
ACCTACGT	-0.195
ACGTCCTC	-0.0847
ACGTTTGA	-0.207
AACGAATA	-0.0869
GAATGTAA	0.0217
AGGGAGAG	-0.126
ACGCATAC	0.0298

Block 4
Target: Ras GTPase-activating protein-binding protein 1, full length (G3BP1, Homo sapiens, UniProt Q13283)
UniProt Q13283, sequence (whole entry, looked up): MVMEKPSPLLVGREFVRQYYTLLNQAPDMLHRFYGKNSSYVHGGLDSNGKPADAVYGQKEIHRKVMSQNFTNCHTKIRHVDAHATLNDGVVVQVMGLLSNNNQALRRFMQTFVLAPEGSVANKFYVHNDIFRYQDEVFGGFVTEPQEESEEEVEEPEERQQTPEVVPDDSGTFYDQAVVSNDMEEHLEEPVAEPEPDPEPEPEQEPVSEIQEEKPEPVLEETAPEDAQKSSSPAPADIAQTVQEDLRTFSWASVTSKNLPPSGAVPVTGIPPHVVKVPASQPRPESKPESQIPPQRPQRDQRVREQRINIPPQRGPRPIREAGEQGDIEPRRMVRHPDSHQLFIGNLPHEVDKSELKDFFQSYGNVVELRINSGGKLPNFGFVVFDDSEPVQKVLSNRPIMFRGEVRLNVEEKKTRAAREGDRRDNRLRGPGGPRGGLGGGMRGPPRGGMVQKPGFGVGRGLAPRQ
Technique: RNA Bind-n-Seq
Molecule type: RNA
Medium: in vitro
Tested at: 200 nM
Notes: whole 134-nt RNA, ends assumed
With: 150 mM LiCl
Baseline: input library
Reading: higher = stronger binding
Library: 7-deaza-guanosine replaces G
All sequences stand within: GGGAGUUCUACAGUCCGACGAUC … UGGAAUUCUCGGGUGUCAAGG
Strand	log2 enrichment
UGUUGAUGCUGUAAUUGCUGAACUUAAAAAGCAGUCUAAACCUGUGACCACCCCUGAAGAAAUUGCACAGGUAAGGACUUAACAUGUUAC	0.368
CCAUAGACCCCUUUCUUCUCCCCUUCCCCACGGUAGGAACAUAGCGUGUUUAUAUUUUAUGGCCAAACUAUUUUGAAUUUUGUUGUCCGG	-0.109
UCAAGUCCUGUGCUACACAUCGUAUGUACCGAAUCGGGCCCGGCCCGGGCCCGGGAAAGUAUUAUGUUACGCCGUUCGGAUCUGCACUUC	-0.944
UGGGAGGUGGAUUUUGUUUAUUUUUUUAGCUCAUUUCCAGGGGUGGGAAUUUUUUUUUAAUGUGUGUCAUGAAUAAAGUUGUUUUUGAAA	-0.43
CCUCAAGUCCUGUGCUACACAUCGUAUGUACCGAAUCGGGUGGGGUGGUGGGGAAAGUAUUAUGUUACGCCGUUCGGAUCUGCACUUCCA	-0.0138
UAACUUUAGAGGAGGAUCUGAUGGAUAUGGCAGUGGACGUGGAUUUGGGGAUGGCUAUAAUGGGUAUGGAGGACGACCUGGAGGUGGCAA	-0.409
AAGUCCUGUGCUACACAUCGUAUGUACCGAAUCGGAAAGGAAAAAAAGGUUUUUGGAAAGUAUUAUGUUACGCCGUUCGGAUCUGCACUU	-1.75
ACCAUGCAGGUGGGCAUCUUUGGGAAGUGGGGCAAGGGGGGGAUAGGGAGGGGGGUAACACAUUGGGAACAGGUGGUCCCAGGUCGUUUC	0.154
GUCCUGUGCUACACAUCGUAUGUACCGAAUCGGGAAAAAAAGGGUGGGAAAAAAAGGGAAAGUAUUAUGUUACGCCGUUCGGAUCUGCAC	-0.471
AGUCCUGUGCUACACAUCGUAUGUACCGAAUCGGGAGGGAAAAAGGGUUUUUUUGGGAAAGUAUUAUGUUACGCCGUUCGGAUCUGCACU	-1.13
GUCCUGUGCUACACAUCGUAUGUACCGAAUCAAAUUUUUAAAUUUUUAAACCCCCAAAAAAGUAUUAUGUUACGCCGUUCGGAUCUGCAC	0.541
